{"data": "Assay results from different studies", "note": "Every numbered part comes from another study and shows a few of its results, in no order.", "sequence of UniProt Q13554 (whole entry, looked up)": "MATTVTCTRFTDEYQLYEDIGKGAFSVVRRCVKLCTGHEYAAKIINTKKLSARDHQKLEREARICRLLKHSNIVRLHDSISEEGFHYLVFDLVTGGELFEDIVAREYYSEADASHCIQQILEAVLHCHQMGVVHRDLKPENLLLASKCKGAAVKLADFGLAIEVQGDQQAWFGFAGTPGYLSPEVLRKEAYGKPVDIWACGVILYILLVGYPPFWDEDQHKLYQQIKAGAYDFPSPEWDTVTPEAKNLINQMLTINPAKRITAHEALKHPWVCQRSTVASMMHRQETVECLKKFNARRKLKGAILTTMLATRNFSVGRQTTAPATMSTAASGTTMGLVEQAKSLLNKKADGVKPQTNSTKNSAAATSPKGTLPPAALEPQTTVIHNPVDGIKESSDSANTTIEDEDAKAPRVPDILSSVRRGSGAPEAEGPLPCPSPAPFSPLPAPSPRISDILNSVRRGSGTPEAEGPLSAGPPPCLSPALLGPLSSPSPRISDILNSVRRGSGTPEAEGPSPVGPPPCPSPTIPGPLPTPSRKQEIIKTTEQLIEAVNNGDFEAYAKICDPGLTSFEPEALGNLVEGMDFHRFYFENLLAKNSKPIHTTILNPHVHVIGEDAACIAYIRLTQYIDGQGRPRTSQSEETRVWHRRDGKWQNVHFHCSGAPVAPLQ", "sequence of UniProt P49760 (whole entry, looked up)": "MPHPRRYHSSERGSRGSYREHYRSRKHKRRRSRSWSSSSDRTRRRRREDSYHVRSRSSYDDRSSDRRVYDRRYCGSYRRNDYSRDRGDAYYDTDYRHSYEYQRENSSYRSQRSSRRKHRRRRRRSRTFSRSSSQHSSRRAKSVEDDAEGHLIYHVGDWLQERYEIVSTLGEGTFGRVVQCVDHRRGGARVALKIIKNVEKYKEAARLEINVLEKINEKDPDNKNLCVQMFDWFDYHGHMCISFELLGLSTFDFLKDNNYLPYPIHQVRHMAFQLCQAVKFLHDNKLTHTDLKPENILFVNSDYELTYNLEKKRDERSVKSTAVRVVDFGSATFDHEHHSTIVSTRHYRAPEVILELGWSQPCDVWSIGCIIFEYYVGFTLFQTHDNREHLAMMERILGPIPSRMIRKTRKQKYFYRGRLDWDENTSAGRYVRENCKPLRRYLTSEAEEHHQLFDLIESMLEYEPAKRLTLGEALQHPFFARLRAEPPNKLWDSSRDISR", "sequence of UniProt O14976 (whole entry, looked up)": "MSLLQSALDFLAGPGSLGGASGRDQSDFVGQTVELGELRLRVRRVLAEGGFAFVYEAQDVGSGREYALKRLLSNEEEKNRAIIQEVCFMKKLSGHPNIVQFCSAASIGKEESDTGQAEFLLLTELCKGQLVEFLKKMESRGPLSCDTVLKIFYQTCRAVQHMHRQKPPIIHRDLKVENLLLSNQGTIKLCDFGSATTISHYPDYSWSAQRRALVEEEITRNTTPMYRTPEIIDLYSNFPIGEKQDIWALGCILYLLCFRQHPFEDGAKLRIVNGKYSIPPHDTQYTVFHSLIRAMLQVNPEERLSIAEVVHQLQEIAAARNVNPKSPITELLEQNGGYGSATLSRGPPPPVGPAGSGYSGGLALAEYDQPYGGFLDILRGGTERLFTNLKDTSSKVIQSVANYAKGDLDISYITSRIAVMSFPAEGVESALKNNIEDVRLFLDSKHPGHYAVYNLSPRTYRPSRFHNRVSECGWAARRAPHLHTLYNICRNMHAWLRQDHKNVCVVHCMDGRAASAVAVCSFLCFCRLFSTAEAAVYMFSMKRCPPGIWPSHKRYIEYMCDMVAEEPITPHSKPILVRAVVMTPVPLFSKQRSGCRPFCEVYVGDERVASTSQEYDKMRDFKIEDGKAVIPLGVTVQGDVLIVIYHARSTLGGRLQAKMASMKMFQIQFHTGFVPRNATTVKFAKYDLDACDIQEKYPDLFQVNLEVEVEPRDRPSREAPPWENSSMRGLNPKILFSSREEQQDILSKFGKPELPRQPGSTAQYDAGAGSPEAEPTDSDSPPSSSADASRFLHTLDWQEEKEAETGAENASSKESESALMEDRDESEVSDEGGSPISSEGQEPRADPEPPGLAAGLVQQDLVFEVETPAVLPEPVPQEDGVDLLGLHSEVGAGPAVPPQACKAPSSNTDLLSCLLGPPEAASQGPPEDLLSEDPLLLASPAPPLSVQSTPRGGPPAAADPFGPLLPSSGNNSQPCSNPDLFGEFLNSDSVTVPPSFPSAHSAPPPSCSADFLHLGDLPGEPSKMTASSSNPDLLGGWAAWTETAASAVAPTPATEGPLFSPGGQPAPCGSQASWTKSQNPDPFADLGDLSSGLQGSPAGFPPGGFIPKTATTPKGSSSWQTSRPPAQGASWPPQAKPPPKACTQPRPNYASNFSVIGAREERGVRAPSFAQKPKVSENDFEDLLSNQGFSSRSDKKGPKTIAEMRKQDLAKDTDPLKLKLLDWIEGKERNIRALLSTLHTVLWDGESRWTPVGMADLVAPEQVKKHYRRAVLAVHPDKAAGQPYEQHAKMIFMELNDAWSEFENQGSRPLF", "sequence of UniProt P29376 (whole entry, looked up)": "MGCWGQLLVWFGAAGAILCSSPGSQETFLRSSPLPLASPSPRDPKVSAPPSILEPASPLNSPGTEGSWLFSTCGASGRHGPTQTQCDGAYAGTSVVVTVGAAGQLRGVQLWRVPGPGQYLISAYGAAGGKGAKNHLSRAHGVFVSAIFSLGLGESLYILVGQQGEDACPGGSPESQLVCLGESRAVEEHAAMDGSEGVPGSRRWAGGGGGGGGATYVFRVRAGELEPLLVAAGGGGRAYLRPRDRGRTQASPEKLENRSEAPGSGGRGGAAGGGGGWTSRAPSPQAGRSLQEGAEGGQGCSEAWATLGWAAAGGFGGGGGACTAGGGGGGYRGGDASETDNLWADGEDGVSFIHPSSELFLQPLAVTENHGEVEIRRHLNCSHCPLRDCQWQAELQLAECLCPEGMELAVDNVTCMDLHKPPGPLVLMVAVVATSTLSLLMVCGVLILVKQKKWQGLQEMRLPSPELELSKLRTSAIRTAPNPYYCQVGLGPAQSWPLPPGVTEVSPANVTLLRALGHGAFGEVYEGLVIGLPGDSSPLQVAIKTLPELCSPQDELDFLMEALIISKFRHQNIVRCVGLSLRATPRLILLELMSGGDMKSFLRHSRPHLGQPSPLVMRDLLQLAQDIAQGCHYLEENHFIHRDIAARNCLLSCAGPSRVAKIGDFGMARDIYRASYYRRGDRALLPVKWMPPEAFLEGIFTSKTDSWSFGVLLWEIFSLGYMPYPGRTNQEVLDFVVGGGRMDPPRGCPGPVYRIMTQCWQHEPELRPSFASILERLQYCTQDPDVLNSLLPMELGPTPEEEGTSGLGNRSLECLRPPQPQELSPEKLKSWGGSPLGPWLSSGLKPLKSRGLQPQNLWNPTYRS", "sequence of UniProt P78356 (whole entry, looked up)": "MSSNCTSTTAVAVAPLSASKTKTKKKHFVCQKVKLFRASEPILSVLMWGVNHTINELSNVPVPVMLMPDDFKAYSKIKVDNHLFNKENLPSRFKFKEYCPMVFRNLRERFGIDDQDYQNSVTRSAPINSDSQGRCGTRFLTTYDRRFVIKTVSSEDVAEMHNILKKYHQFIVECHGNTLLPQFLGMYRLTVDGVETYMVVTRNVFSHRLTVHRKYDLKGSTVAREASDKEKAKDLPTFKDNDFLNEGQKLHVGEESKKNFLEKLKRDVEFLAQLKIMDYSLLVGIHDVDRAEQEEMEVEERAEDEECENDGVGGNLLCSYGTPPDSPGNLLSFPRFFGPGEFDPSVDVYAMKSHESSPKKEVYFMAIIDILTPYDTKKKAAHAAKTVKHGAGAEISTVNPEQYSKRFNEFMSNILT", "sequence of UniProt Q8TDX7 (whole entry, looked up)": "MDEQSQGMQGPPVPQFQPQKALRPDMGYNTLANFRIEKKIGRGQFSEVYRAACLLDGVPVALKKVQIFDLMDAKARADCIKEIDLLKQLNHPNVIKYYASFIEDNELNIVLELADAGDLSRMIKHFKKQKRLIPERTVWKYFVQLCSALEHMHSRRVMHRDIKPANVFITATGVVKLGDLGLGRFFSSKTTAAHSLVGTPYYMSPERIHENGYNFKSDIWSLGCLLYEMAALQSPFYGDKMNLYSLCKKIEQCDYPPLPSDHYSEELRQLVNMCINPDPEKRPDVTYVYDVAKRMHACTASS", "sequence of UniProt O75582 (whole entry, looked up)": "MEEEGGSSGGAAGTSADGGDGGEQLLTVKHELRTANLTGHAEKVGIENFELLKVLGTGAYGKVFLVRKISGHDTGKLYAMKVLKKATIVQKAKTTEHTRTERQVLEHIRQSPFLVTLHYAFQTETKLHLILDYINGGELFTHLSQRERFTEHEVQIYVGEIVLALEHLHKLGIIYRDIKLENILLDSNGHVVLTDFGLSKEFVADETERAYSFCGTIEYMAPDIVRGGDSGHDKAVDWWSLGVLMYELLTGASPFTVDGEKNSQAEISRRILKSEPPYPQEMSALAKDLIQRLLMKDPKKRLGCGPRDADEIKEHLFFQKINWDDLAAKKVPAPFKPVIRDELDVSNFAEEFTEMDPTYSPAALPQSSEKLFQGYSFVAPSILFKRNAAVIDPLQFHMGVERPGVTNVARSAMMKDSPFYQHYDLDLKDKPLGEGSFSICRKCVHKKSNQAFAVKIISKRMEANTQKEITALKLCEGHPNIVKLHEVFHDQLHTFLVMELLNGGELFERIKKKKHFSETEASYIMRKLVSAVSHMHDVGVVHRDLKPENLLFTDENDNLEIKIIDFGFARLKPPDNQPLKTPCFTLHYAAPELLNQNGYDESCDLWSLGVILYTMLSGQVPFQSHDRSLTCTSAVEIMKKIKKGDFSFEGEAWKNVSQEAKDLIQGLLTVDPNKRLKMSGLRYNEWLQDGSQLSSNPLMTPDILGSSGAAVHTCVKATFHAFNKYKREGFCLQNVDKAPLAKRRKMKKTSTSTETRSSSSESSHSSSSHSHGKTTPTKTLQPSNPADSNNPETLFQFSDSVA"}
{"data": "Set 1", "target": "RNA binding protein fox-1 homolog 2, RRM domain, GST-SBP tag (RBFOX2, Homo sapiens, UniProt O43251-10, residues 100-194)", "method": "RNA Bind-n-Seq", "molecule type": "RNA", "sample": "in vitro", "concentration": "365 nM", "setting": "natural RNA segment, single round, ends assumed", "relative to": "no-protein control", "reading": "higher = stronger binding", "all sequences stand within": "GGGAGUUCUACAGUCCGACGAUC … UGGAAUUCUCGGGUGCCAA"}
{"Oligonucleotide": "GUUCCCUUCUGCAUCUCUGGCCCUGUGGACAGAACACUUAUUGCUAGGUUAUCUAUCGUGUGGCAGGGCUGGCCAGCACCGUUGGGUCUCACCUGGCAUGAGAUCUGAAG", "RBNS enrichment (R)": 1.55}
{"Oligonucleotide": "GUCUAAGAUGGAUUAAACAAGUAUAAAAUAAAAUACAUUUAUAAAAUAAAAAGGAAAACAGACUUAAUUUUCUCCUAUGUUAAUUGACUUGUAUUAUAGUUGAAUCUAUG", "RBNS enrichment (R)": 0.835}
{"Oligonucleotide": "CCGGGGCCUGCCAAGCUUUUCCAUACUUCCAGAUGAUGUUAUAAGGCAUUAAACAGCCACCAUCGCAUAGAACCUUCCCUGUAACCCAGACAUUGUCAAGGAAGAUAUAC", "RBNS enrichment (R)": 0.668}
{"Oligonucleotide": "AGAUCAGGAUUAUUAGUAACAAUUCUAGUUUUUUCCUCCCACCUUCUCCCUCUCCUCUCUCCUCUAUGAUUUUCUCUCUUUCCCCCUCCCUUCCUGUACAUUUUCCUCCA", "RBNS enrichment (R)": 1.07}
{"Oligonucleotide": "GUUUUCUCUGUAAGAAAAUAUGGCCGUCACCCCCGCCCACCAAAAAAAAAUGAUUUGCUCUUUGUGAACACACAAUUAUGAAUUUCAUGGCGAUGUUAACAAUUCUGCAU", "RBNS enrichment (R)": 0.502}
{"Oligonucleotide": "UGGGACACCCCAGGCAUGCUCUCAAACUAGUCAUGGGGCCUUCUGAGGACAGUUCCAUCCUACCUUUGUCCUUCCCUGGUACAGCCUGUGACCCUGGCACACUGCACAUG", "RBNS enrichment (R)": 1.27}
{"Oligonucleotide": "UGCUGGGCUCAUCCUGUCUCCCCUGACAACUGUGACUUCUCCUGGAGAGGCCUGUGCACUGCUGAAGUUCUUGCUGAUGAUUCUAGCUGUAAACCUUUGUUGCCGCCGCA", "RBNS enrichment (R)": 1.39}
{"Oligonucleotide": "CCUUCUGGGUGCUCUACACCUCAGGUUACCAGGCCUGAGGCAUCUCAGCCAAGCUUGUUUCCUGCUCUGAGGCUUGUGGGGUGGGAGCCAGAGUGGAGGUCGGUGAAAUA", "RBNS enrichment (R)": 0.829}
{"data": "Set 2", "SMILES": "CC1=C(C#N)C(c2ccc3c(c2)c(NC(=O)c2ccccc2C)nn3C)C(C#N)=C(C)N1", "effect on": "cell-free assay", "method": "competition with immobilised ligand", "concentration": "1 µM"}
{"target": "IRAK3 (Homo sapiens, UniProt Q9Y616)", "remaining binding": "79%"}
{"target": "PIP4K2B (Homo sapiens, UniProt P78356)", "remaining binding": "83%"}
{"target": "CAMK2B (Homo sapiens, UniProt Q13554)", "remaining binding": "86%"}
{"target": "NEK7 (Homo sapiens, UniProt Q8TDX7)", "remaining binding": "96%"}
{"target": "EPHA1 (Homo sapiens, UniProt P21709)", "remaining binding": "88%"}
{"target": "DDR2 (Homo sapiens, UniProt Q16832)", "remaining binding": "86%"}
{"target": "MAP2K6 (Homo sapiens, UniProt P52564)", "remaining binding": "95%"}
{"target": "GAK (Homo sapiens, UniProt O14976)", "remaining binding": "100%"}
{"target": "CDK2 (Homo sapiens, UniProt P24941)", "remaining binding": "86%"}
{"target": "BLK (Homo sapiens, UniProt P51451)", "remaining binding": "82%"}
{"target": "EGFR (Homo sapiens, UniProt P00533, L858R/T790M)", "remaining binding": "93%"}
{"target": "LTK (Homo sapiens, UniProt P29376)", "remaining binding": "70%"}
{"target": "RET (Homo sapiens, UniProt P07949, M918T)", "remaining binding": "100%"}
{"target": "RIOK3 (Homo sapiens, UniProt O14730)", "remaining binding": "87%"}
{"target": "EGFR (Homo sapiens, UniProt P00533, del747-752/P753S)", "remaining binding": "73%"}
{"target": "EIF2AK2 (Homo sapiens, UniProt P19525)", "remaining binding": "100%"}
{"target": "CLK2 (Homo sapiens, UniProt P49760)", "remaining binding": "75%"}
{"data": "Set 3", "target": "PABPC1L2, full length, GST fusion (mouse, UniProt A0ABA7IW68)", "method": "RNAcompete", "molecule type": "RNA", "sample": "in vitro", "concentration": "20 nM", "setting": "7-mer, probes averaged, single round", "relative to": "mean of 7-mers", "reading": "higher = stronger binding", "Residues (chain)": "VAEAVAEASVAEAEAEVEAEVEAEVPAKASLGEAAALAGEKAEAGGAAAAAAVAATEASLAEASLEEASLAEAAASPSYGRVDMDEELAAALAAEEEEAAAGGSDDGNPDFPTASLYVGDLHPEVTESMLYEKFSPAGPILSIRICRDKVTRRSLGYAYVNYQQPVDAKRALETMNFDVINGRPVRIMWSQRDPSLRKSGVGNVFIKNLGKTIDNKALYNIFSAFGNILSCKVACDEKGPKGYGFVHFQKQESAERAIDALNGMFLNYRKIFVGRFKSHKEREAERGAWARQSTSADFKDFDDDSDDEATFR"}
{"Oligonucleotide": "ACAAACA", "7-mer Z-score": 2.84}
{"Oligonucleotide": "CCCUACA", "7-mer Z-score": -0.262}
{"Oligonucleotide": "UCCAACA", "7-mer Z-score": -0.0391}
{"Oligonucleotide": "AAUUUUU", "7-mer Z-score": -0.012}
{"Oligonucleotide": "CCCCUAC", "7-mer Z-score": -0.394}
{"Oligonucleotide": "AGGCCCA", "7-mer Z-score": -0.0645}
{"Oligonucleotide": "CGGGAUU", "7-mer Z-score": -0.0156}
{"Oligonucleotide": "UCCGGUU", "7-mer Z-score": -0.295}
{"data": "Set 4", "SMILES": "O=C1NC(=O)c2c1c1c3ccccc3[nH]c1c1[nH]c3cc(Br)ccc3c21", "effect on": "enzyme activity", "mode": "inhibitor", "concentration": "0.5 µM", "relative to": "control"}
{"target": "SRMS (Homo sapiens, UniProt Q9H3Y6)", "remaining activity": "91.5%"}
{"target": "RPS6KA5 (Homo sapiens, UniProt O75582)", "remaining activity": "76.1%"}
{"target": "PHKG1 (Homo sapiens, UniProt Q16816)", "remaining activity": "40.7%"}
{"target": "ABL1 (Homo sapiens, UniProt P00519)", "remaining activity": "83.3%"}
{"target": "Cyclin-dependent kinase 6, with cyclin D3 (CDK6, Homo sapiens, UniProt Q00534)", "remaining activity": "40.2%"}
{"target": "CAMK2B (Homo sapiens, UniProt Q13554)", "remaining activity": "80.3%"}
{"note": "Some of these lines once more (set 2):"}
{"target": "RET (Homo sapiens, UniProt P07949, M918T)", "remaining binding": "100%"}
{"target": "NEK7 (Homo sapiens, UniProt Q8TDX7)", "remaining binding": "96%"}
{"target": "EPHA1 (Homo sapiens, UniProt P21709)", "remaining binding": "88%"}
